Measurements gathered from unrelated publications.
Each numbered part is a random draw from the data of one study; scales do not carry over between parts. Positions count from the first letter of the parent shown.

Set 1
Target: ABI1, truncated, D143A, DHFR fusion (Arabidopsis thaliana)
Technique: DHFR PCA, deep sequencing
Medium: yeast
Notes: methotrexate growth selection, single substitutions
Added: (+)-ABA 0.0091 µM
Reference: wild-type fitted maximum
Direction: higher = stronger binding
Starting sequence: PYL1, truncated, DHFR fusion (Arabidopsis thaliana); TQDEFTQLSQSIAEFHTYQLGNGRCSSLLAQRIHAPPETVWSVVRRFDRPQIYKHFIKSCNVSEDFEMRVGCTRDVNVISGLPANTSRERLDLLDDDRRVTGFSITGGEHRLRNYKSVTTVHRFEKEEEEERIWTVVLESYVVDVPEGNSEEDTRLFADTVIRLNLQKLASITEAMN; partner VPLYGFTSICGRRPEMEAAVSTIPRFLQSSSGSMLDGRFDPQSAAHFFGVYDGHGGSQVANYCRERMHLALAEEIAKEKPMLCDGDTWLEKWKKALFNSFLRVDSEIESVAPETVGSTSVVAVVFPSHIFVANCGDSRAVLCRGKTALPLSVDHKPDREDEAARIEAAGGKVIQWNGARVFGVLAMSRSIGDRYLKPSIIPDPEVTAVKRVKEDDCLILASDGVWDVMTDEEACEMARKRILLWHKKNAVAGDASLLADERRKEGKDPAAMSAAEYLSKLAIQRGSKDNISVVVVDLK
| Variant | relative binding score [%] |
| --- | --- |
| I105C | -5.33 |
| Q7T | 23.1 |
| E152Q | 10.9 |
| K54H | 3.66 |
| R155F | 7.42 |
| H16S | 1.73 |
| L8W | 9.21 |
| Q167K | 26.5 |
| Q167W | -3.24 |
| I133M | 23.8 |
| E127L | 31.5 |
| E125L | 13.8 |
| E128T | 27.1 |

Set 2
Target: Fragile X messenger ribonucleoprotein 1, C-terminal low-complexity region (Fmr1, Mus musculus, UniProt P35922)
Technique: RNA Bind-n-Seq
Form: RNA
Medium: in vitro
Concentration: 200 nM
Notes: whole 134-nt RNA, ends assumed
Added: 150 mM KCl
Reference: input library
Direction: higher = stronger binding
| Oligonucleotide | log2 enrichment |
| --- | --- |
| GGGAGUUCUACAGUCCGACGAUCUCAAGUCCUGUGCUACACAUCGUAUGUACCGAAUCGGUUUGGGUUUGGGUUUGGGAAAGUAUUAUGUUACGCCGUUCGGAUCUGCACUUCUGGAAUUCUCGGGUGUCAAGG | -0.404 |
| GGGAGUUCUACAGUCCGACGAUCCCUGUGCUACACAUCGUAUGUACCGAAUCGGGGUUUUUUUGGGGAAAGGGGAAAAAGGGGAAAGUAUUAUGUUACGCCGUUCGGAUCUGCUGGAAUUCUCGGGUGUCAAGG | 0.33 |
| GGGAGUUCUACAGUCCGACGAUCGUCCUGUGCUACACAUCGUAUGUACCGAAUCGGGGCCCCCGGGCCCCCGGCCCCCGGGAAAGUAUUAUGUUACGCCGUUCGGAUCUGCACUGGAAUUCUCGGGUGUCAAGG | -0.368 |
| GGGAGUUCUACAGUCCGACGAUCCUGUGCUACACAUCGUAUGUACCGAAUCGGGAAAAAAAGGAAAAAAAGGGGAAAAAAAGGGGAAAGUAUUAUGUUACGCCGUUCGGAUCUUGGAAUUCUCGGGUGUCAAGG | -0.194 |
| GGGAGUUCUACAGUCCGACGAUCCACAGACAACACGCACCCACACAAAAACAGAGGGAAGGGGUUGGGAUGGGGACAGGGUGCACAGCAGGGCGGGGUAGGACCCCAGCCCCUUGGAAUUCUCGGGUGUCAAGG | 1.19 |
| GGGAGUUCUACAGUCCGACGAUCCUGUGCUACACAUCGUAUGUACCGAAUCGGCCCCCCCGGGCCCCCCCGGGGCCCCCCCGGGAAAGUAUUAUGUUACGCCGUUCGGAUCUGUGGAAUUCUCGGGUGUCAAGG | -1.06 |
| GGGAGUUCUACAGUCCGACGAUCCUCAAGUCCUGUGCUACACAUCGUAUGUACCGAAUCGGCGGGGCGGGGCGGGGAAAGUAUUAUGUUACGCCGUUCGGAUCUGCACUUCCAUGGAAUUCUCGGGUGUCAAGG | 0.971 |
| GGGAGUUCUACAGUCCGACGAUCUCCUCAAGUCCUGUGCUACACAUCGUAUGUACCGAAUCGGGCGGCGGGCGGAAAGUAUUAUGUUACGCCGUUCGGAUCUGCACUUCCAGCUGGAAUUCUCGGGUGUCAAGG | -0.407 |
| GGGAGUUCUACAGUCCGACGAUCUGGCCCUGGUGGCAUGCGGGGAGGAAGAGGUGGCCUCAUAGAUCGUGGUGGUCCCGGUGGAAUGUUCAGAGGUGGCCGUGGUGGAGACAGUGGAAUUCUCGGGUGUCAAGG | 0.0811 |

Set 3
Target: CCND2, cyclin fold, Cln2 fusion (human)
Technique: yeast growth competition, sequencing
Medium: yeast
Notes: weak parent motif
Reference: not given
Direction: higher = stronger binding
Starting sequence: ORC1 docking peptide (human); PRARKRLELGNLG; partner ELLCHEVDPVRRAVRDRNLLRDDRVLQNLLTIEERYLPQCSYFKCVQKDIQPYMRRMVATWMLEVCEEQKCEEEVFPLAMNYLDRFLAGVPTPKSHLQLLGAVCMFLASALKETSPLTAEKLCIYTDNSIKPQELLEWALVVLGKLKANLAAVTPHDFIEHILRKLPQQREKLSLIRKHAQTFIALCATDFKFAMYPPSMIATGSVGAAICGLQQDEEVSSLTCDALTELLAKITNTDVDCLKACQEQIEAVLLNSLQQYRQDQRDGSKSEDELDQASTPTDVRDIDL
| Variant | normalised enrichment score |
| --- | --- |
| R2M | 0.245 |
| L7A | -0.0922 |
| L12N | 0.336 |
| L9K | 0.282 |
| K5I | 0.0128 |
| G13L | 0.0346 |
| A3G | -0.0824 |
| L9H | -0.0936 |
| R6N | 0.129 |
| L9V | 0.353 |
| R6F | 0.22 |
| G13A | 0.197 |
| L7M | -0.108 |
| K5R | 0.0856 |
| E8M | 0.0427 |
| L12W | 0.402 |
| R4K | 0.242 |
| L12V | 0.0536 |
| E8T | -0.126 |
| L7N | -0.278 |
| R6C | 0.0502 |
| L12R | -0.126 |

Set 4
Target: Hepatocyte nuclear factor 3-alpha (Foxa1, Mus musculus, UniProt P35582, residues 1-468, full length assumed)
Technique: EMSA with sequencing
Form: double-stranded DNA, one strand shown
Medium: in vitro
Concentration: 10 and 20 nM
Notes: whole designed probe, mean of two concentrations, ends assumed
Reference: negative control set to 0
Direction: higher = stronger binding
Construct (chain): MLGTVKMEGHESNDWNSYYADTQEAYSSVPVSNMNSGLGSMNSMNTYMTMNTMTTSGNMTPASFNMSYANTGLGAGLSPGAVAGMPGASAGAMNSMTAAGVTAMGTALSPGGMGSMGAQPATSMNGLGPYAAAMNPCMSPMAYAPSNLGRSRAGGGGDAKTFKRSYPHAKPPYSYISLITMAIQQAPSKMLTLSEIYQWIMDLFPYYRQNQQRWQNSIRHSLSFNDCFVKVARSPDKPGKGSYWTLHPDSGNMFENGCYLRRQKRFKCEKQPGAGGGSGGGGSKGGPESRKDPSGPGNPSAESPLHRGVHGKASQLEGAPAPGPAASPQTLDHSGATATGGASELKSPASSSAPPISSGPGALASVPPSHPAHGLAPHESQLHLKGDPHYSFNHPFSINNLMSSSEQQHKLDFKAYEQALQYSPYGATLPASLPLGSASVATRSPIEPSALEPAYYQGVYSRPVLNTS
| Oligonucleotide | normalised bound fraction |
| --- | --- |
| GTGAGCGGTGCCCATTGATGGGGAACCATTTTATTTTACAAAAGGAAATGAAATCTCATAGAGACTCAGGGGTACACTTTGTGTGGTTAATGTTCTTCTCACTTCCCTACACATTTTCCATATTTACATAGATGATTTTATTACAAAATATTATGCAAAATGAGAAATGTCCTTTAAGTGTTTTAATAAACTTTATCAGTGTTTTTTTATTATATCAATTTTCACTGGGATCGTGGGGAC | 0.249 ratio |
| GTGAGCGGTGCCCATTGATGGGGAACATCTTCCCCCTCTTCCTTGCCCCACCAGCTCACCTTCCCGGGTTATTTGCACAAAGGAAAATAAATAAAGCCGGCATTCGTTAACGCAGTTCTGGCGCAAACTGCTGTTTGCTCTGGATGAATCATGGTCCTTTGGCGAGGCGTGGCTCCGGGAGAGCAAAGCACCGTGTCAGGGCCATGATCCGGGGTGGCCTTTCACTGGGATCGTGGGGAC | 0.371 ratio |
| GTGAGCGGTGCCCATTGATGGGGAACATCTTCCCCCTCTTCCTTGCCCCACCAGCTCACCTTCCCGGGTTGTTTACTTTGAGGAAATTAATATAAGCCGGCATTCGTTAACCCTCTTCTGGCGCAAACTGCTGTTTGCTCTGGATGAATCATGGTCCTTTGGCGACGCCAGGCTCCGGGAGAGCAAAGCACCGTGTCAGGGCCATGATCCGGGGTGGCCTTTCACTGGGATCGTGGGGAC | 0.302 ratio |
| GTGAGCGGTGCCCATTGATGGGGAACTACAGACTCACATTCACCTTGCGCCACACTACCTTTACGGTATAGTGAACTCCTTTCAGTCCCTTTCTTTCACAATAGTCTGCATAATCTAAGTAAACAGGAGACTTGTGTCTTTCACTGTTCCTAGACACTTCGCAACTAATATATTGCTTGCATATAGACACTAGATATCTCTGAATAAATCAACAGAAGATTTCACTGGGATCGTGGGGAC | 0.39 ratio |
| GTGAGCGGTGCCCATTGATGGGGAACTTTTTTCTGTACAGGGAAAAATAGTGAATATTTCAAAATTGTGAAACAAAGAGTCTCTGTGGCAACTACTCATTAGTTGCATAACGACAATATGCAAACAAATGAGTGTGTCTGTGTTCCAATAAAACTGTATTTACAAAAGCAGAAGGCCACCCATGTGCCAATGTCCAAAGTTTCTCAACCAACCCCTGGTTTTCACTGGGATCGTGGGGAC | 0.419 ratio |

Some of these lines once more (set 1):
| Variant | relative binding score [%] |
| --- | --- |
| R155F | 7.42 |
| H16S | 1.73 |
| L8W | 9.21 |
| Q167K | 26.5 |
